Measurements pooled from the literature.
Compare with care: the assays were run in different laboratories. Values joined by “and” are separate records of one study, mostly repeats; a detail may differ. ± gives the spread as reported.
Dihydrofolate reductase: Dihydrofolate reductase (Enterococcus faecalis, UniProt Q834R2)
Beta-lactamase ADC-7: Beta-lactamase ADC-7 (Acinetobacter baumannii, UniProt Q6DRA1)
FUT3: FUT3 (Homo sapiens, UniProt P21217)
RNASE1: Ribonuclease pancreatic (RNASE1, Bos taurus, UniProt P61823)
EPHA4: Ephrin type-A receptor 4 (EPHA4, Homo sapiens, UniProt P54764)
MAPK14: Mitogen-activated protein kinase 14 (MAPK14, Homo sapiens, UniProt Q16539)
Metallo-beta-lactamase type 2: Metallo-beta-lactamase type 2 (Serratia marcescens, UniProt P52699)
Nos1: Nitric oxide synthase 1 (Nos1, Rattus norvegicus, UniProt P29476)
cathepsin H: cathepsin H (Capra hircus, UniProt A0A452G5L2)
CASP6: Caspase-6 (CASP6, Homo sapiens, UniProt P55212)
Aminodeoxyfutalosine nucleosidase: Aminodeoxyfutalosine nucleosidase (Helicobacter pylori, UniProt Q9ZMY2)

The Ki of `COc1cc(Cc2cnc(N)nc2N)cc(/C=C/C(=O)N2N=Cc3ccccc3C2c2ccccc2C)c1OC` (stereo not drawn) is reported as 0.0072 µM and > 0.005 µM (Dihydrofolate reductase; enzyme activity, inhibitor; with: dihydrofolate (Km 10.9 µM)).
The Ki of `COC(=O)c1cccc(CS(=O)(=O)NCc2cn(CB(O)O)nn2)c1` is reported as 0.7 ± 0.08 µM (Beta-lactamase ADC-7; enzyme activity, inhibitor; with: nitrocefin).
`COc1cc(Cc2cnc(N)nc2N)cc(/C=C/C(=O)N2N=Cc3ccccc3C2c2ccc(C)cc2)c1OC` (stereo not drawn) gave a Ki of > 0.005 µM and 0.0051 µM (Dihydrofolate reductase; enzyme activity, inhibitor; with: dihydrofolate (Km 10.9 µM)).
With `COc1ccc([C@@H]2CN(C(=O)OCC3c4ccccc4-c4ccccc43)C[C@H]2C(=O)O)cc1` the Ki was 7.1 µM (PTH1R (Homo sapiens, UniProt Q03431); ligand displacement, radioligand).
`COc1cc(Cc2cnc(N)nc2N)cc(/C=C/C(=O)N2N=Cc3ccccc3C2C2CCCCC2)c1OC` (stereo not drawn) has a Ki of 0.0027 µM (Dihydrofolate reductase; enzyme activity, inhibitor; with: dihydrofolate (Km 10.9 µM)).
The Ki of `Nc1nc2c(ncn2[C@@H]2O[C@H](COP(=O)(O)OP(=O)(O)O[C@H]3O[C@@H](CNC(=O)c4ccccc4)[C@@H](O)[C@@H](O)[C@@H]3F)[C@@H](O)[C@H]2O)c(=O)[nH]1` is reported as 16.3 µM (FUT3; enzyme activity, inhibitor).
The Ki of `CS(=O)(=O)NS(=O)(=O)CCCS(=O)(=O)NS(=O)(=O)CCCS(=O)(=O)NS(=O)(=O)CCCS(=O)(=O)NS(C)(=O)=O` is reported as 8300 µM (RNASE1; enzyme activity, inhibitor, fluorescence).
With `Cc1cc(N2CCCCC2)c(NC(=O)c2ccc(-c3cc(O)ccc3C)c(C)c2)cc1F` the Ki was over 0.25 µM (EPHA4).
`CN(C)c1ccc(-n2cc(COC(=O)[C@]3(C)C=C(C(=O)OC(C)(C)C)C(=O)CC3)nn2)cc1` has a Ki of 3.5 µM (MAPK14; ligand displacement, FP).
For `CN(C)c1ccc2c3c(cccc13)C(=O)N(CCS)C2=O`, the Ki was 0.037 ± 0.003 µM (Metallo-beta-lactamase type 2; enzyme activity, inhibitor; Km 4.8 µM, with: chromacef 25 µM).
`CNC(=O)C1CCN(c2ccccc2NC(=O)c2ccc(-c3ccnc4[nH]ccc34)c(C)c2)CC1` gave a Ki of over 0.25 µM (EPHA4).
`CC(C)CN(NC(=O)[C@H](CCCNC(=N)N)NC(=O)[C@H](Cc1ccc(O)cc1)NC(=O)CCCCCCC(=O)N[C@@H](Cc1ccc(O)cc1)C(=O)N[C@@H](CCCNC(=N)N)C(=O)NN(CC(C)C)C(=O)N[C@@H](CCCNC(=N)N)C(=O)N[C@@H](Cc1ccc(O)cc1)C(N)=O)C(=O)N[C@@H](CCCNC(=N)N)C(=O)N[C@@H](Cc1ccc(O)cc1)C(N)=O` has a Ki of 0.134 ± 0.02 µM (NPY4R (Homo sapiens, UniProt P50391)).
With `COC(=O)C(CS)N1C(=O)c2cccc3c(N(C)C)ccc(c23)C1=O` (stereo not drawn) the Ki was 0.015 ± 0.002 µM (Metallo-beta-lactamase type 2; enzyme activity, inhibitor; Km 4.8 µM, with: chromacef 25 µM).
`COC(=O)C1(C)C=C(C(=O)OCc2ccccc2)C(=O)CC1` (stereo not drawn) has a Ki of 5.4 µM (MAPK14; ligand displacement, FP).
With `CC[C@H](C)[C@H](NC(=O)[C@H](CCC(N)=O)NC(=O)[C@H](CCCNC(=N)N)NC(=O)[C@H](CC(C)C)NC(=O)[C@@H](NC(=O)[C@H](CCCCN)NC(=O)[C@H](Cc1ccc(O)cc1)NC(=O)[C@H](CCCCN)NC(=O)[C@H](CC(=O)O)NC(=O)[C@H](CCCNC(=N)N)NC(=O)CNC(=O)[C@H](CC(C)C)NC(=O)[C@@H](N)CCCNC(=N)N)[C@@H](C)O)C(=O)N[C@@H](CCCNC(=N)N)C(=O)N[C@@H](CCC(N)=O)C(=O)O` the Ki was 540 ± 50 µM (Lrrk2 (Mus musculus, UniProt Q5S006); enzyme activity, inhibitor, TR-FRET; Ki,ea, with: PLK-peptide varied).
The Ki of `O=P(O)(O)OC[C@H]1O[C@@](O)(C(F)(F)F)[C@H](O)[C@@H](O)[C@@H]1O` is reported as 310 ± 41 µM (pgmB (Lactococcus lactis, UniProt P71447); enzyme activity, competitive inhibitor).
With `Cc1cc(N)nc(CC2CNCC2OCCNCC(F)(F)c2cccc(F)c2)c1` (racemic) the Ki was 0.08 µM (Nos1; enzyme activity, inhibitor, hemoglobin capture).
`COc1cccc(/C=C/C(=N/NC(N)=O)c2ccccc2)c1` has a Ki of 74 ± 0.6 µM (cathepsin H; competitive inhibitor, Lineweaver-Burk plot; goat liver enzyme; pH 7.0, with: Leu-βNA substrate).
The Ki of `COC(=O)c1ccc(CS(=O)(=O)NCc2cn(CB(O)O)nn2)cc1` is reported as 0.39 ± 0.3 µM (Beta-lactamase ADC-7; enzyme activity, inhibitor; with: nitrocefin).
`CC(C)COCCCCCN1C[C@H](O)[C@@H](O)[C@H](O)[C@@H]1CO` has a Ki of 0.0095 µM (Beta-glucosidase (GBA2, Homo sapiens, UniProt Q9HCG7); enzyme activity, inhibitor; HEK293T overexpressing homogenate; with: 4MU-β-D-glucopyranoside).
`Cc1ccc(/C=C/C(=N/NC(N)=O)c2ccccc2)cc1` gave a Ki of 45 ± 0.5 µM (cathepsin H; competitive inhibitor, Lineweaver-Burk plot; goat liver enzyme; pH 7.0, with: Leu-βNA substrate).
`Cc1ccc(-c2nc3ccccc3[nH]2)cc1NC(=O)COc1ccccc1Cl` has a Ki of over 250 µM (PPOX (Homo sapiens, UniProt P50336); enzyme activity, inhibitor, fluorescence).
For `O=S(=O)(Cc1ccccc1)NCc1cn(CB(O)O)nn1`, the Ki was 0.77 ± 0.08 µM (Beta-lactamase ADC-7; enzyme activity, inhibitor; with: nitrocefin).
`O=C(c1ccc(F)cc1)C1CCN(C2Cc3c(O)cccc3CC2O)CC1` (racemic) has a Ki of 8.64 ± 0.974 µM (sigma-1 receptor; radioligand binding; with: [3H]pentazocine).
For `CC(=O)N[C@@H](Cc1c[nH]c2ccccc12)C(=O)N[C@@H](CC(=O)O)C(=O)N[C@@H](CCCNC(=N)N)C(=O)N[C@@H](C)C(=O)N[C@H](C=O)CC(=O)O`, the Ki was 22.9 µM (CASP6; enzyme activity, inhibitor, fluorescence; pH 7).
`CNC(=O)C1CCN(c2ccccc2NC(=O)c2ccc(-c3cc(OC)ccc3C)c(C)c2)CC1` gave a Ki of over 0.25 µM (EPHA4).
With `CCCCCCCCCCCCCCCC(=O)OCCCC` the Ki was 9.32 ± 0.49 µM (pheromone-binding protein 1 (Lymantria dispar, UniProt O16105); binding, competitive fluorescence binding; pH 5.5, pheromone-binding protein 1, with: 1-NPN probe).
`Nc1ncnc2c(CN3C[C@H](CSc4cnccn4)[C@@H](O)C3)c[nH]c12` has a Ki of 6e-06 ± 1e-06 µM (Aminodeoxyfutalosine nucleosidase; enzyme activity, inhibitor; slow-onset equilibrium).
With `COc1ccc(/C=C/C(=O)c2ccccc2)cc1` the Ki was 138 ± 0.1 µM (cathepsin H; competitive inhibitor, Lineweaver-Burk plot; goat liver enzyme; pH 7.0, with: Leu-βNA substrate).
For `CCCCSC[C@H]1CN(Cc2c[nH]c3c(N)ncnc23)C[C@@H]1O`, the Ki was 0.00079 ± 4e-05 µM (Aminodeoxyfutalosine nucleosidase; enzyme activity, inhibitor; initial).
The Ki of `COC(=O)[C@]1(Cc2ccccc2)C=C(C(=O)OC(C)(C)C)C(=O)CC1` is reported as 0.8 µM (MAPK14; ligand displacement, FP).
`CNC(=O)C1CCN(c2cc(C)c(F)cc2NC(=O)c2ccc(-c3cc(O)ccc3C)c(C)c2)CC1` gave a Ki of 0.045 µM (EPHA3 (Homo sapiens, UniProt P29320); cell-free assay, TR-FRET).
The Ki of `COc1cc(Cc2cnc(N)nc2N)cc(/C=C/C(=O)N2N=Cc3ccccc3C2c2ccccc2)c1OC` (stereo not drawn) is reported as 0.0026 µM (Dihydrofolate reductase; enzyme activity, inhibitor; with: dihydrofolate (Km 10.9 µM)).
`CN(C)c1ccc2c(c1)C(=O)N([C@H](CS)C(=O)O)C2=O` gave a Ki of 0.24 ± 0.03 µM (Metallo-beta-lactamase type 2; enzyme activity, inhibitor; Km 4.8 µM, with: chromacef 25 µM).
`CCN(CC)c1ccc2c(-c3ccc(S(=O)(=O)NCCCCCC(=O)NCc4ccc(CC(O)CN5CCN(CCSC(c6ccc(F)cc6)c6ccc(F)cc6)CC5)cc4)cc3S(=O)(=O)[O-])c3ccc(=[N+](CC)CC)cc-3oc2c1` (stereo not drawn) has a Ki of 5.91 µM (Slc6a4 (Rattus norvegicus, UniProt P31652); ligand displacement, radioligand; cell membranes).
`CNC(=O)C1CCN(c2ccccc2NC(=O)c2ccc(-c3c(C)ccc4[nH]ncc34)c(C)c2)CC1` has a Ki of 0.0097 µM (EPHA4; enzyme activity, inhibitor).
For `Cc1ccc(S(=O)(=O)NC(=O)[C@H]2O[C@@H](n3cnc4c(N)ncnc43)[C@H](O)[C@@H]2O)cc1`, the Ki was 4800 µM (RNASE1; enzyme activity, inhibitor, fluorescence).
`COc1ccccc1/C=C/C(=N\NC(N)=O)c1ccccc1` has a Ki of 54 ± 0.3 µM (cathepsin H; competitive inhibitor, Lineweaver-Burk plot; goat liver enzyme; pH 7.0, with: Leu-βNA substrate).
`Cc1cc(N)nc(C[C@@H]2CNC[C@@H]2OCCC/C=C/c2cccc(F)c2)c1` has a Ki of 0.637 µM (Nos1; enzyme activity, inhibitor; pH 7.4).
With `CC(=O)N[C@@H](Cc1ccccc1)C(=O)N[C@@H](CC(=O)O)C(=O)N[C@H](C(=O)N1CCC[C@H]1C(=O)N[C@H](C=O)CC(=O)O)C(C)C` the Ki was 14.1 µM (CASP6; enzyme activity, inhibitor, fluorescence; pH 7).
With `NC(=O)N/N=C(\C=C\c1cccc([N+](=O)[O-])c1)c1ccccc1` the Ki was 33 ± 0.1 µM (cathepsin H; competitive inhibitor, Lineweaver-Burk plot; goat liver enzyme; pH 7.0, with: Leu-βNA substrate).
For `Nc1nc2c(ncn2[C@@H]2O[C@H](COP(=O)(O)OP(=O)(O)O[C@H]3O[C@@H](CNC(=O)CCCc4ccccc4)[C@@H](O)[C@@H](O)[C@@H]3F)[C@@H](O)[C@H]2O)c(=O)[nH]1`, the Ki was 2.1 µM (FUT3; enzyme activity, inhibitor).
